Measurements from different studies.
Lines come from different studies, so protocols differ. “And” joins repeats or separate records; there may be more than shown. ± marks the error that the study gave.
Beta-glucuronidase: Beta-glucuronidase (Lachnospira eligens, UniProt C4Z6Z2)
SUMO-activating enzyme subunit 2 with SAE1: SUMO-activating enzyme subunit 2, with SAE1 (Homo sapiens, UniProt Q9UBT2)
KCNJ13 M125R: Inward rectifier potassium channel 13 (KCNJ13, Homo sapiens, UniProt O60928, M125R)
CDPK1: Calmodulin-domain protein kinase 1 (CDPK1, Toxoplasma gondii, UniProt Q9BJF5)

By UniProt entry, the sequences of proteins in these tests, tags left out. Chains listed by the source or under a name are the forms on record and can include a tag or linker. Residues count along the entry.
UniProt O60928, whole entry M125R: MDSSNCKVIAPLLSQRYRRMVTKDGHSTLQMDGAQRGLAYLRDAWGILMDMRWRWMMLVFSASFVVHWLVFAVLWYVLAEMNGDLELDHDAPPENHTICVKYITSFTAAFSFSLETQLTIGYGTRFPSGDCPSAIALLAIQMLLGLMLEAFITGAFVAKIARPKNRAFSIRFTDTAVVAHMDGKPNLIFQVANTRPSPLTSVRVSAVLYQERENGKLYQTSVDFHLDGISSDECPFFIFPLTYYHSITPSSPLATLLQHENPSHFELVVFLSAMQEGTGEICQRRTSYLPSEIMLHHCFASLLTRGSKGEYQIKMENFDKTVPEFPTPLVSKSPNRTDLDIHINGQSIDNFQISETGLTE
UniProt P05804, whole entry: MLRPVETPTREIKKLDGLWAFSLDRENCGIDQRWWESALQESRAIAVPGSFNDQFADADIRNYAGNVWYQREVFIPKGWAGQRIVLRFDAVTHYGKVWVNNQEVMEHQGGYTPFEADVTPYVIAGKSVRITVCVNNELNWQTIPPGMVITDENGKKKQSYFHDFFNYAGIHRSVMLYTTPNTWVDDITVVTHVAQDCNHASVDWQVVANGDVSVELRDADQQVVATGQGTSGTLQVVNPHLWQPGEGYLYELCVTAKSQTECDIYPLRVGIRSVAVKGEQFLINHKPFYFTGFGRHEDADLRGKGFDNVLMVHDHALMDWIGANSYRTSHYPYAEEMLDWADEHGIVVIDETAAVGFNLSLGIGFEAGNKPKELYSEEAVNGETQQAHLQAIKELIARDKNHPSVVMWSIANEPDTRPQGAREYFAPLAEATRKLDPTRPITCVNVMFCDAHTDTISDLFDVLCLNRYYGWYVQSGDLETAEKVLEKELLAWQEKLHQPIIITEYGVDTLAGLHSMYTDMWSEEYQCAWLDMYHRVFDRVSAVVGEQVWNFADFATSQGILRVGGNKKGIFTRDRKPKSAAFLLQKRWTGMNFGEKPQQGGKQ
UniProt Q2FV99, 60-206 limits assumed: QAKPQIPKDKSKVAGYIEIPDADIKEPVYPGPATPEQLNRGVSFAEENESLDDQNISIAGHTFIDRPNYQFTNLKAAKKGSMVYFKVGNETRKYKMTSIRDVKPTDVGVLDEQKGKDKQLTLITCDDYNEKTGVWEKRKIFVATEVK
UniProt Q60963, 22-440 limits assumed: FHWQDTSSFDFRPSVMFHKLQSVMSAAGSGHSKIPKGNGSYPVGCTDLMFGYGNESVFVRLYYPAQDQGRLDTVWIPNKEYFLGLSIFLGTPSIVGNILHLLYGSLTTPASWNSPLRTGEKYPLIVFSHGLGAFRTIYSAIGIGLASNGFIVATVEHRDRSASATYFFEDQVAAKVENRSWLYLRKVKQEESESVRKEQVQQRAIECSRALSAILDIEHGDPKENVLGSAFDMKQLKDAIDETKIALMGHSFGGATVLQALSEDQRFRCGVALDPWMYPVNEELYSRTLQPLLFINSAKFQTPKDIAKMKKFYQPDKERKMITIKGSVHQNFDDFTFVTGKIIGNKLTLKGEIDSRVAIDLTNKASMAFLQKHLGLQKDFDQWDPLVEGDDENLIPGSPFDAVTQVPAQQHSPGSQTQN
UniProt A0A024B7W1, with tags, fused parts or gaps with the stated changes limits assumed: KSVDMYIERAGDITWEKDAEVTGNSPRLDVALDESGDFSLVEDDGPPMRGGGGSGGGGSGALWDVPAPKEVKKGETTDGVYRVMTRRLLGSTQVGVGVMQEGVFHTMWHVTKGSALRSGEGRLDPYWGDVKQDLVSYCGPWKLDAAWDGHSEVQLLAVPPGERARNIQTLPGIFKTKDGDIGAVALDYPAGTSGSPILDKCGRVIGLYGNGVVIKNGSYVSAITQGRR
UniProt P81908, whole entry: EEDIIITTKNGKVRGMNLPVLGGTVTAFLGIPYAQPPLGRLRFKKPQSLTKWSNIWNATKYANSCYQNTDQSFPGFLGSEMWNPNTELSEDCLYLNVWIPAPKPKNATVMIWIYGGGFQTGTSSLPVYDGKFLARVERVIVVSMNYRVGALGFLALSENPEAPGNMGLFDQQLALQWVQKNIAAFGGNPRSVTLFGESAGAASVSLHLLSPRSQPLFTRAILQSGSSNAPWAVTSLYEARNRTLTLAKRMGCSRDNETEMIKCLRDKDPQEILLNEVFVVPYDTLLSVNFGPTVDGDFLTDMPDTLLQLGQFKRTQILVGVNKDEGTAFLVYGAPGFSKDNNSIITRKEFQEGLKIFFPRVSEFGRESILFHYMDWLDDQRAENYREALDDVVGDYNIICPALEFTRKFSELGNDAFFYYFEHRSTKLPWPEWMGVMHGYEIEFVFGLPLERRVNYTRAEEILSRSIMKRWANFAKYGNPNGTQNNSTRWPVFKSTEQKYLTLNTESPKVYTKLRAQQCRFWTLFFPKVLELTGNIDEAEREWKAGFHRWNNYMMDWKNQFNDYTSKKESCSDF
UniProt P09884, whole entry: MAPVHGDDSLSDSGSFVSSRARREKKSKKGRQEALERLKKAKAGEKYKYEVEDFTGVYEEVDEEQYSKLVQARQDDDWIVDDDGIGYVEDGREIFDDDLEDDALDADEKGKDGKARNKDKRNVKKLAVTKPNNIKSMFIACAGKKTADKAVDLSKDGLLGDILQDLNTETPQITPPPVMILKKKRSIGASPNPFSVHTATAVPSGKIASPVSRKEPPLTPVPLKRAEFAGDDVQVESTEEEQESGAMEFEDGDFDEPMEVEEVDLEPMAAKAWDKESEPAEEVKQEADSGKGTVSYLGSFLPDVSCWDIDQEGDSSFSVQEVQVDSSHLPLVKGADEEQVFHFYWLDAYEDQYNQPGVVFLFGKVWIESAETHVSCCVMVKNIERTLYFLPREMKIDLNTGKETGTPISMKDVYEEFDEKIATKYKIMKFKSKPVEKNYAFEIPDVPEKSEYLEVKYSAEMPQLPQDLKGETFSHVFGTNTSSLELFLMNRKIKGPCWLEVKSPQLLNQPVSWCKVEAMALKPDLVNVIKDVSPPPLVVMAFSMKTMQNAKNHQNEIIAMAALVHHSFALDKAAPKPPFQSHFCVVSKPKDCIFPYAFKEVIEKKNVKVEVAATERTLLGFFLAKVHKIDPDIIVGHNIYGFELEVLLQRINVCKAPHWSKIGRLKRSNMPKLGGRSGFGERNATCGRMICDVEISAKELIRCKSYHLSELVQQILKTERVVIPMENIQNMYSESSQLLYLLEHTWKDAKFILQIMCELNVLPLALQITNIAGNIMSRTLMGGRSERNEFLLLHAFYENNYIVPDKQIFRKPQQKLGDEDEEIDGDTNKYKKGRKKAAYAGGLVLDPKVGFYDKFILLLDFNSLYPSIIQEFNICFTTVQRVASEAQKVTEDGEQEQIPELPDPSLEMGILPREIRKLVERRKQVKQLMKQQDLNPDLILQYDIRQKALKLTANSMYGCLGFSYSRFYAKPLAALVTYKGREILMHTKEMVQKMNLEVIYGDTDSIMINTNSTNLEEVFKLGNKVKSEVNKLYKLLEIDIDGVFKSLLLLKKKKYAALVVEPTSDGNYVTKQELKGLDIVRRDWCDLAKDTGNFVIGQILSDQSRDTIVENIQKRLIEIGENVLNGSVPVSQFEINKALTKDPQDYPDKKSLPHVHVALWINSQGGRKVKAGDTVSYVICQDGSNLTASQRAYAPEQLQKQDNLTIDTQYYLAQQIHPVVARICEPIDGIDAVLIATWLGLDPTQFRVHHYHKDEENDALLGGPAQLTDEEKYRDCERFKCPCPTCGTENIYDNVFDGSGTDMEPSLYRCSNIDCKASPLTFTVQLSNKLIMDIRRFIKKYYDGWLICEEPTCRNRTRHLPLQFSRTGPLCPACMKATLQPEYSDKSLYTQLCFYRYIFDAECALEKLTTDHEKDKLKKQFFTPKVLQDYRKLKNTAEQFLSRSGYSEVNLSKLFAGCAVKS
UniProt Q07812, whole entry: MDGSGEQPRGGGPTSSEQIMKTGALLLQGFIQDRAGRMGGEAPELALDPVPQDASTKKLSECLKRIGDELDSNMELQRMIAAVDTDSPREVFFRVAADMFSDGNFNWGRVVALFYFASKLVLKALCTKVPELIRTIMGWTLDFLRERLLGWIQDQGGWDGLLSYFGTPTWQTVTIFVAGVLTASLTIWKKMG
UniProt Q99Y92, 37-995 limits assumed: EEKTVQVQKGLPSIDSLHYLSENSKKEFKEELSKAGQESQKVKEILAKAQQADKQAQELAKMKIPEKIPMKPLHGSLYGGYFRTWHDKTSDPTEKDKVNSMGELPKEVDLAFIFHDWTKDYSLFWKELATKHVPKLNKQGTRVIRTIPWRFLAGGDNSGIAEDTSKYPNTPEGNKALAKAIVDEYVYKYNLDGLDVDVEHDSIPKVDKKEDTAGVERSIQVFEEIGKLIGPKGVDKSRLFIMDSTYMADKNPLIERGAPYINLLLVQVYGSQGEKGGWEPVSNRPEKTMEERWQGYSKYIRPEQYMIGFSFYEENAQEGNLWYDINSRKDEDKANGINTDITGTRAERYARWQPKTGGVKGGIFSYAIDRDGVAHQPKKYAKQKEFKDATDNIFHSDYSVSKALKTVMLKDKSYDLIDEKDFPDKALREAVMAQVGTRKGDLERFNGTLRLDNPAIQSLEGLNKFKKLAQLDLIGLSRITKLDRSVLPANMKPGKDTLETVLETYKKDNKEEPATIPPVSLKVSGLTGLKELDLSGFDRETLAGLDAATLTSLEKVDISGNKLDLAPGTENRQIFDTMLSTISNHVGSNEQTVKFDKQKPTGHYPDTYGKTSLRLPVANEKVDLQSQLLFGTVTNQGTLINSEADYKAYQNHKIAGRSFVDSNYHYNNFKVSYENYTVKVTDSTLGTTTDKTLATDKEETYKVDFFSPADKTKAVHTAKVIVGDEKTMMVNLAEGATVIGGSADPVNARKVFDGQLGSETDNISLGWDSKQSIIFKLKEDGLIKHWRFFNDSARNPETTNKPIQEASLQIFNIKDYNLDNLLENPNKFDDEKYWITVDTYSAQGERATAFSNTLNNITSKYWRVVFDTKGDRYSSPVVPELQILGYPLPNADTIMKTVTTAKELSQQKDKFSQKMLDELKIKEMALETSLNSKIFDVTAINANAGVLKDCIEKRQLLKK
UniProt P22459, whole entry: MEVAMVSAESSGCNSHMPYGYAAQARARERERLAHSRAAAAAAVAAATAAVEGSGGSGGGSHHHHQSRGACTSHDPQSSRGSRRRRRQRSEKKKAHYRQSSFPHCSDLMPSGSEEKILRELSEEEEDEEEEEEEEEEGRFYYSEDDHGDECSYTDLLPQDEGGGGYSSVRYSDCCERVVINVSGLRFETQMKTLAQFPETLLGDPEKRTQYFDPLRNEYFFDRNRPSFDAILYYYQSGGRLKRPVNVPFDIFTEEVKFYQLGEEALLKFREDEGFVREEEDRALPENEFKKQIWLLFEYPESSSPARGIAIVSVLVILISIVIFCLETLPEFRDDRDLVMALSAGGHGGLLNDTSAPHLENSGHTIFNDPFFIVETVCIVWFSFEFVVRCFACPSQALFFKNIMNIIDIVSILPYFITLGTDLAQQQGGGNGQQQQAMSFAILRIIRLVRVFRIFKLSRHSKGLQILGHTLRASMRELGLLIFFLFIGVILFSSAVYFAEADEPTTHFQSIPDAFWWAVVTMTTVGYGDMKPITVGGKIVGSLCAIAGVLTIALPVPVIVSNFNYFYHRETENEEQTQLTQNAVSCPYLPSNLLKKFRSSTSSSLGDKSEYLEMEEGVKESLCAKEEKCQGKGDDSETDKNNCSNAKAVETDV

c1ccc(-c2ccc3c(n2)sc2c(N4CCNCC4)ncnc23)cc1 — IC50 (Beta-glucuronidase; enzyme activity, inhibitor): 0.27 ± 0.05 µM
C=CC[C@H](Nc1ccc(OC)cc1)C12C=CC(O1)C(C(=O)OC)=C2C(=O)OC (stereo partly shown) — IC50 (SUMO-activating enzyme subunit 2 with SAE1; SUMOylation, inhibitor, AlphaScreen; with: SUMO1-RanGAP1 conjugation): 17.6 µM
c1nc(N2CCNCC2)c2sc3nc(N4CCOCC4)ccc3c2n1 — IC50 (Beta-glucuronidase (uidA, Escherichia coli, UniProt P05804); enzyme activity, inhibitor): 0.02 ± 0.01 µM
NC[C@@H](NC[C@@H]1CCCN1C[C@@H](CO)NC[C@@H](NCCc1ccc(-c2ccccc2)cc1)c1ccccc1)c1ccccc1 — IC50 (Aminoglycoside N(6')-acetyltransferase type 1 (aacA4, Klebsiella pneumoniae, UniProt P19650); acetyltransferase activity, inhibitor): 3 µM
O=C(O)COc1c(SSc2cnn(-c3ccccc3)c(=O)c2OCC(=O)O)cnn(-c2ccccc2)c1=O — IC50 (srtA (Staphylococcus aureus, UniProt Q2FV99); inhibitor): 2.2 ± 0.2 µM
O=S(=O)(NC1CCN(Cc2cc(Cl)c3cccnc3c2O)CC1)c1ccccc1 — IC50 (KCNJ13 M125R; ion current, inhibitor, thallium flux; T-REx-HEK293): 14.7 µM
Cc1ccc(S(=O)(=O)N(CCOc2ccc(C(=N)N)cc2)CCOc2ccc(C(=N)N)cc2)cc1 — IC50 (Glutamate NMDA receptor; Grin1/Grin2b, ifenprodil binding site (Grin1/Grin2b, Rattus norvegicus, UniProt P35439+Q00960); pH 7.4): 0.41 ± 0.13 µM
COC(=O)C1=C(C(=O)OC)C2([C@@H](C)Nc3ccc(C)cc3)C=CC1O2 (stereo partly shown) — IC50 (SUMO-activating enzyme subunit 2 with SAE1; SUMOylation, inhibitor, AlphaScreen; with: SUMO1-RanGAP1 conjugation): 34.7 µM
CC(C)Cc1cc(C(=O)O)nc(O)n1 — IC50 (Metallo-beta-lactamase type 2 (Serratia marcescens, UniProt P52699); 10 min preincubation, with: FC5 fluorogenic substrate): > 1000 µM
O=C1NC(=S)NC(=O)C1=Cc1cn(C(=O)c2ccc3ccccc3c2)c2ccc(Cl)cc12 — IC50 (DNA polymerase eta (POLH, Homo sapiens, UniProt Q9Y253); strand-displacement synthesis, inhibitor, fluorescence; with: 0.1 mM dTTP): 17 µM and 16.6 µM
C=C(CC/C=C(\C)CCC=C(C)C)CN1[C@@H](COP(=O)(O)CP(=O)(O)O)[C@]1(C)CC/C=C(\C)CCC=C(C)C (relative stereo) — IC50 (Squalene synthase ERG9 (Saccharomyces cerevisiae, UniProt P29704); enzyme activity, inhibitor; pH 7.2, tetrabutylammonium salt, with: 100 µM [3H]FPP, no added pyrophosphate): 99.8 ± 18.5 µM
COc1cc(C)cc(Sc2cc(C(=O)N3Cc4ccccc4C3)ccc2O)c1 — IC50 (Heat shock protein HSP 90-beta (HSP90AB1, Homo sapiens, UniProt P08238); binding, fluorescence polarization; with: FITC-geldanamycin tracer): > 50 µM
Cc1cc(C)n2c1C=C1C=CC(CCC(=O)NCCCCCN(CCc3ccccc3)C(=O)n3cc(-c4ccc(OC(F)(F)F)cc4)nn3)=[N+]1[B-]2(F)F — IC50 (Platelet-activating factor acetylhydrolase (Mus musculus, UniProt Q60963); enzyme activity, inhibitor, competitive ABPP with FP-Rh; transfected HEK-293T cell lysate; mouse Lp-PLA2): 0.039 µM
NC(=O)c1ccc(-c2ncc(OCC3CCNCC3)nc2-c2ccc(-c3ccoc3)cc2)cc1 — IC50 (Genome polyprotein, NS2B-NS3 protease (ZIKV, UniProt A0A024B7W1); enzyme activity, inhibitor; Gly4-Ser-Gly4-linked NS2B-NS3 protease): 1.05 ± 0.07 µM
COC(=O)[C@@H](CS)N1C(=O)c2ccc(N(C)C)cc2C1=O — IC50 (Metallo-beta-lactamase type 2 (blaNDM-1, Klebsiella pneumoniae, UniProt C7C422); enzyme activity, inhibitor; with: chromacef 20 µM): 6.3 ± 0.2 µM
CCN(CC)C(=O)Oc1ccc(CCC(=O)N2CCC(c3ccccc3)CC2)cc1OC — IC50 (Cholinesterase (BCHE, Equus caballus, UniProt P81908); enzyme activity, inhibitor, Ellman): 2.7 ± 0.03 µM
O=C(NO)c1c(F)c(F)cc(F)c1F — IC50 (Histone deacetylase 6, CD2 catalytic domain (hdac6, Danio rerio, UniProt F8W4B7); enzyme activity, inhibitor, fluorogenic; 30 min, with: Ac-RHK(Ac)K(Ac)-AMC): > 20 µM
COC(=O)C1=C(C(=O)OC)C2([C@H](Cc3ccccc3)Nc3ccc(Cl)cc3)C=CC1O2 (stereo partly shown) — IC50 (SUMO-activating enzyme subunit 2 with SAE1; SUMOylation, inhibitor, AlphaScreen; with: SUMO1-RanGAP1 conjugation): 2.4 µM
[11CH3]Nc1ccc(C(=O)C2CCN(C3Cc4ccccc4CC3O)CC2)cc1 (single isomer, unassigned) — uptake (Sprague-Dawley rat, striatum; 30 min): 0.593 %ID/g
C[C@H](CS)C(=O)N[C@@H](Cc1c[nH]c2ccccc12)C(=O)O — MIC of meropenem (Klebsiella pneumoniae; VIM-1 producing; 50 µM, with: meropenem): 16 µg/mL
CNc1nc(N2CCNCC2)c2sc3nc(N4CCOCC4)ccc3c2n1 — IC50 (Beta-glucuronidase; enzyme activity, inhibitor): 0.4 ± 0.1 µM
C/C=C1\NC(=O)[C@@H](NC(=O)[C@@H](NC(=O)[C@H](C)NC(=O)C/C(C)=C/Cl)[C@@H](C)CC)[C@@H](C)OC(=O)[C@H](C(C)C)NC(=O)[C@H](Cc2ccc(O)cc2)N(C)C(=O)[C@H](Cc2ccccc2)N2C(=O)[C@H](CC[C@H]2OC)NC1=O — IC50 (Proteinase K (PROK, Engyodontium album, UniProt P06873); enzyme activity, inhibitor; 30 min, pH 7.4, 22 °C, with: Suc-Ala-Ala-Pro-Phe-AMC): 0.0986 µM
C(=C\c1ccccc1)/CN1CCN(C(c2ccccc2)c2ccccc2)CC1 — IC50 (mRNA cap guanine-N(7) methyltransferase (RNMT, Homo sapiens, UniProt O43148); enzyme activity, inhibitor): 16.8 ± 2 µM
[2H]c1c([2H])c(S(=O)(=O)N2CCC(F)(C(=O)Nc3ccc4cc(C(=O)O)ccc4c3)CC2)c(C([2H])([2H])[2H])c([2H])c1C([2H])([2H])[2H] — IC50 (Bifunctional epoxide hydrolase 2 (EPHX2, Homo sapiens, UniProt P34913); pH 7.0, 30 °C, with: CMNPC substrate 5 µM): 1.46 µM
N=C(N)c1ccc(NCCOCCNc2ccc(C(=N)N)cc2)cc1 — IC50 (Grin1/Grin2a/Grin2b, MK-801 channel binding site (Rattus norvegicus, UniProt P35439+Q00959+Q00960); pH 7): 0.85 ± 0.23 µM
COc1ccc(C(=O)NC2CCN(Cc3cc(Cl)c4cccnc4c3O)CC2)cc1 — IC50 (KCNJ13 M125R; ion current, inhibitor, thallium flux; T-REx-HEK293): 10.1 µM
NC(=O)c1cc(Sc2ccc(O)cc2)nc2ccccc12 — IC50 (CDPK1; kinase activity, inhibitor, ELISA; with: syntide-2 substrate, ATP 25 µM): 1.6 µM
O=c1ccn([C@@H]2O[C@H](COP(=O)(O)OP(=O)(O)OP(=O)(O)O)[C@@H](O)[C@]2(F)Br)c(=O)[nH]1 — IC50 (DNA polymerase alpha catalytic subunit (POLA1, Homo sapiens, UniProt P09884); polymerase activity, inhibitor; 37 °C): > 100 µM
Cc1cc(S(=O)(=O)NC(C(=O)NO)C2CCOCC2)ccc1F (racemic) — IC50 (72 kDa type IV collagenase (MMP2, Homo sapiens, UniProt P08253); enzyme activity, fluorogenic peptide cleavage): 4.4 µM
CNCc1ccc(-c2ncc(OCC3CCNCC3)nc2-c2ccc(-c3ccoc3)cc2)cc1 — IC50 (Genome polyprotein, NS2B-NS3 protease (pol, Dengue virus type 3, UniProt Q6YMS4); enzyme activity, inhibitor; dengue virus type 3 NS2B-NS3 protease): 0.53 ± 0.01 µM
OC(CN1CCNCC1)Cn1c2ccccc2c2cc(Br)ccc21 (stereo not shown) — IC50 (Apoptosis regulator BAX (BAX, Homo sapiens, UniProt Q07812); membrane permeabilization, inhibitor; ANTS/DPX liposomes; 400 nM BAX, with: 30 nM tBID): 8.3 µM
COc1ccc(CN[C@@H]2CO[C@H](C(c3ccccc3)c3ccccc3)C[C@H]2O)cc1 — inhibition (5-hydroxytryptamine receptor 2B (HTR2B, Homo sapiens, UniProt P41595); radioligand binding; 10 µM, with: [3H]LSD): 46.3%
O=C(Nc1ccccc1)NC1CCN(Cc2cc(Cl)c3cccnc3c2O)CC1 — IC50 (KCNJ13 M125R; ion current, inhibitor, thallium flux; T-REx-HEK293): 15.8 µM
CC(=O)N[C@H]1[C@H](O[C@@H]2[C@@H](OC[C@H]3O[C@@H](O[C@H]4[C@H](O)[C@H]5N=C(C)S[C@H]5O[C@@H]4CO)[C@@H](O)[C@@H](O[C@H]4O[C@H](CO)[C@@H](O)[C@H](O)[C@@H]4O[C@@H]4O[C@H](CO)[C@@H](O[C@@H]5O[C@H](CO)[C@H](O)[C@H](O)[C@H]5O)[C@H](O)[C@H]4NC(C)=O)[C@@H]3O)O[C@H](CO)[C@@H](O)[C@@H]2O)O[C@H](CO)[C@@H](O[C@@H]2O[C@H](CO)[C@H](O)[C@H](O)[C@H]2O)[C@@H]1O — IC50 (endoS (Streptococcus pyogenes, UniProt Q99Y92); N-glycan hydrolysis, inhibitor, HPAEC-PAD; 10 min, pH 7.4, 30 °C, with: sialylated rituximab substrate): 1.4 µM
O=C(Nc1ccccc1OS(=O)(=O)c1ccc(OC(F)(F)F)cc1)c1cnccn1 — IC50 (P2X purinoceptor 7 (P2RX7, Homo sapiens, UniProt Q99572); calcium mobilisation, antagonist; MCF7 transfected with target; with: Bz-ATP 100 µM): 0.457 ± 0.036 µM
C=CC(=O)Nc1cc(-n2c(=O)ccc3cnc4ccc(-c5cn[nH]c5)cc4c32)ccc1C — GI50 (U2932; cell growth; 72 h): 1.2 µM
NCCNCCSc1ccccc1 — plasma concentration (mouse blood; 100 µg/mL, 30 min, 37 °C): 36300 ± 2510 ng/mL
CO[C@H]1[C@H](O[C@H]([C@H]2O[C@@H](n3ccc(=O)[nH]c3=O)[C@H](O)[C@@H]2O)[C@H](NCCCNC(=O)[C@@H](NC(=O)[C@@H](NC(=O)N[C@H](C(=O)O)C(C)C)[C@@H]2CCNC(=N)N2)[C@@H](OC(=O)CCCCCCCCCCCCNC(=N)N)C(C)C)C(N)=O)O[C@H](CN)[C@H]1O — IC50 (Undecaprenyl-phosphate alpha-N-acetylglucosaminyl 1-phosphate transferase (wecA, Escherichia coli, UniProt P0AC78); enzyme activity, inhibitor): 0.12 ± 0.01 µM
CC(=O)NCCc1c(COCc2[nH]c3cc(Br)ccc3c2CCNC(C)=O)[nH]c2cc(Br)ccc12 — IC50 (Potassium voltage-gated channel subfamily A member 4 (KCNA4, Homo sapiens, UniProt P22459); ion current, inhibitor, automated whole-cell patch clamp; CHO-K1 inducible expression): 70 µM
NC(=O)c1cc(Sc2ccc(C(F)(F)F)cc2)nc2ccccc12 — IC50 (CDPK1; kinase activity, inhibitor, ELISA; with: syntide-2 substrate, ATP 25 µM): 4.4 µM
